Assay results gathered from unrelated publications.
Each line is one published result; not all experiments were run side by side.
ACHE: Acetylcholinesterase (ACHE, Homo sapiens, UniProt P22303)
Sequence of UniProt P22303 (whole entry, looked up): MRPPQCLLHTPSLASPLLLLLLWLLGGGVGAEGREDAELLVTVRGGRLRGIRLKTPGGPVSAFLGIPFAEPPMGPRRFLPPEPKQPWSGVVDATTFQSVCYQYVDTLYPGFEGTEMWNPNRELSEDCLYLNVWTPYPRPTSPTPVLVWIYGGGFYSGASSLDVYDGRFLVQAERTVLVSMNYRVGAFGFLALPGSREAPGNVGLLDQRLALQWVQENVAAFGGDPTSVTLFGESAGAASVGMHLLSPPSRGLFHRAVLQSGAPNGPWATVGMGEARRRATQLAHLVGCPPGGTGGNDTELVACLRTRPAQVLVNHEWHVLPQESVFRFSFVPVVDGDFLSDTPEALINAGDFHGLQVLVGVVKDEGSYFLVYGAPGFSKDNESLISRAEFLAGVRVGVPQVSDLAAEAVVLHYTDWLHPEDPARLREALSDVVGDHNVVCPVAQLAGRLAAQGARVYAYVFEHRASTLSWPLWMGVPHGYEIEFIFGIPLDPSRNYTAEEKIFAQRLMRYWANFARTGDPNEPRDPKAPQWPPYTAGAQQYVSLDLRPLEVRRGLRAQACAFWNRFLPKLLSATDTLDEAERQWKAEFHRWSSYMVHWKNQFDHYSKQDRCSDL
BCHE: Cholinesterase (BCHE, Homo sapiens, UniProt P06276)
Sequence of UniProt P06276 (whole entry, looked up): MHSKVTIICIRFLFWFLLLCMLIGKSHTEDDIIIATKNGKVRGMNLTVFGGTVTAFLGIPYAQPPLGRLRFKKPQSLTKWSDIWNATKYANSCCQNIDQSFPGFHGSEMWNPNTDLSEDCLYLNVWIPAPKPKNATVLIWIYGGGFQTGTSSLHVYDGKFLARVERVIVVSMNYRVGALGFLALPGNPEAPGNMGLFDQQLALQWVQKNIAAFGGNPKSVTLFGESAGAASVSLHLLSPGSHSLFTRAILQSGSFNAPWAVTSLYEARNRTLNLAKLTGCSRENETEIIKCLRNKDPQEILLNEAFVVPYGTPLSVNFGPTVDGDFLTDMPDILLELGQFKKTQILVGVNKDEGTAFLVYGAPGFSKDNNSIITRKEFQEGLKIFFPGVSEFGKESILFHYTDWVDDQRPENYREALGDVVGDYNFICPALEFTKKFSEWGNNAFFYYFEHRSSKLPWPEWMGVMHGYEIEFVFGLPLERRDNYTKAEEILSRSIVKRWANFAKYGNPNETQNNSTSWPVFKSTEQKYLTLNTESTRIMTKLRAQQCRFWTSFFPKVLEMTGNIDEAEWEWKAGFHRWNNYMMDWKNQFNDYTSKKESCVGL
PFF0160c E182D: Dihydroorotate dehydrogenase (quinone), mitochondrial (PFF0160c, Plasmodium falciparum, UniProt Q08210, E182D)
Sequence of UniProt P50897 (whole entry, looked up): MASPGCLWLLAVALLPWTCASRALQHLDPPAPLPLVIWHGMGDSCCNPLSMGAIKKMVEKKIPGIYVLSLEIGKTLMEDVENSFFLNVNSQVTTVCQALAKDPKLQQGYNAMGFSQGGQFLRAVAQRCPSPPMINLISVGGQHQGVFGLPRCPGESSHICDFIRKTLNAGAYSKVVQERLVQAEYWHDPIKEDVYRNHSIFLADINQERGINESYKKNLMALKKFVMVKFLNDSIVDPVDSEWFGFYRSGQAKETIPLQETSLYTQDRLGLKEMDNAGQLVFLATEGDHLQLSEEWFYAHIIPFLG
Sequence of UniProt P28335 (whole entry, looked up): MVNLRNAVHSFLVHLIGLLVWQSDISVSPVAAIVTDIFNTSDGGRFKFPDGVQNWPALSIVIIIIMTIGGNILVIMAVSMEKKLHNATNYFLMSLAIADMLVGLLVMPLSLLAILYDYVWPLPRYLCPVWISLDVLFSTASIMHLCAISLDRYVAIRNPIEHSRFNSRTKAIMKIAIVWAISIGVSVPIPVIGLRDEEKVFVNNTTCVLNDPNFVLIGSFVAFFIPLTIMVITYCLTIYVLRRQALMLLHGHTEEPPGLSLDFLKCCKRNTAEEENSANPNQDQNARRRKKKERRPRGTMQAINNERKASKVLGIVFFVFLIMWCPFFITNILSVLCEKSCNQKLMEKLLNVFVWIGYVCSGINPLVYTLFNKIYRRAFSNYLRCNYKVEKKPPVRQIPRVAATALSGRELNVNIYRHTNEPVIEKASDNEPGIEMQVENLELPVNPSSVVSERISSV
Sequence of UniProt P08173 (whole entry, looked up): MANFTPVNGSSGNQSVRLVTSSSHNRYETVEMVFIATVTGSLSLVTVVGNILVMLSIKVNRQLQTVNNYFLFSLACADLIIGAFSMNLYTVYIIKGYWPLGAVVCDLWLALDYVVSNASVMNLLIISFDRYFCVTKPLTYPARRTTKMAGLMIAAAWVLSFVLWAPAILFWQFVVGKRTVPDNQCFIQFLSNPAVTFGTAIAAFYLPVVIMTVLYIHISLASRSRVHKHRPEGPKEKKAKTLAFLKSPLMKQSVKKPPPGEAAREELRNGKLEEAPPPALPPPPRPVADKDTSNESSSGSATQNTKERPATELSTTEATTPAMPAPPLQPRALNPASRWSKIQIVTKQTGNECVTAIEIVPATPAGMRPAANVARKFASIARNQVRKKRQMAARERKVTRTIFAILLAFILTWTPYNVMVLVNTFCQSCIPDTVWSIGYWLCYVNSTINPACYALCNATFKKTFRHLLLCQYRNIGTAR
Sequence of UniProt P42338 (whole entry, looked up): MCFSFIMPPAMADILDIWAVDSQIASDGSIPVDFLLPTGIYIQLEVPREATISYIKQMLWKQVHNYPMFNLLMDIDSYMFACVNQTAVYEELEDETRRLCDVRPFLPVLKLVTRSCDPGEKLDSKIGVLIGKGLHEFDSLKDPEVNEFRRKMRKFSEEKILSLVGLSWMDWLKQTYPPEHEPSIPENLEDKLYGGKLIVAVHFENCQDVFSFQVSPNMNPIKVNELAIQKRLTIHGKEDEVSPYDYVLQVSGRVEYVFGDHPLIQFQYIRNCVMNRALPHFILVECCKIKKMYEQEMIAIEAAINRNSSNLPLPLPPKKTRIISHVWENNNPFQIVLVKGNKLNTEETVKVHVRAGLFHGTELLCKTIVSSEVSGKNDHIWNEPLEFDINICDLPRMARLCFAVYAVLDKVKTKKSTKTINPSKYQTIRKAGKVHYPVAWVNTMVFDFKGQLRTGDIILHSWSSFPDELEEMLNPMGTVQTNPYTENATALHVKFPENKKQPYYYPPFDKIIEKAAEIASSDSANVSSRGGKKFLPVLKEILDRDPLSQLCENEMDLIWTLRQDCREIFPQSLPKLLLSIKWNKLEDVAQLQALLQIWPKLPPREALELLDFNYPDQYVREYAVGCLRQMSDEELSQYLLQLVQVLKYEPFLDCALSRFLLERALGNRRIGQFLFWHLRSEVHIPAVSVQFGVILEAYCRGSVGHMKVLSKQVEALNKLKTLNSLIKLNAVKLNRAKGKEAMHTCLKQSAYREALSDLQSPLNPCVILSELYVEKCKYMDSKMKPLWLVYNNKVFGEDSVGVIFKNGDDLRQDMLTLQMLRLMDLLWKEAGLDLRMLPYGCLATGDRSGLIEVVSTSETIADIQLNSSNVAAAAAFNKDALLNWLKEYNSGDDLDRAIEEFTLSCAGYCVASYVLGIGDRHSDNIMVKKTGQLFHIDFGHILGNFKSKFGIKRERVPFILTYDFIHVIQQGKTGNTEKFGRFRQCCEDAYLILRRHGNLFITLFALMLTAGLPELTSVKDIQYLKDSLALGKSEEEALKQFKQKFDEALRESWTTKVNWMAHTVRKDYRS
Sequence of UniProt P50406 (whole entry, looked up): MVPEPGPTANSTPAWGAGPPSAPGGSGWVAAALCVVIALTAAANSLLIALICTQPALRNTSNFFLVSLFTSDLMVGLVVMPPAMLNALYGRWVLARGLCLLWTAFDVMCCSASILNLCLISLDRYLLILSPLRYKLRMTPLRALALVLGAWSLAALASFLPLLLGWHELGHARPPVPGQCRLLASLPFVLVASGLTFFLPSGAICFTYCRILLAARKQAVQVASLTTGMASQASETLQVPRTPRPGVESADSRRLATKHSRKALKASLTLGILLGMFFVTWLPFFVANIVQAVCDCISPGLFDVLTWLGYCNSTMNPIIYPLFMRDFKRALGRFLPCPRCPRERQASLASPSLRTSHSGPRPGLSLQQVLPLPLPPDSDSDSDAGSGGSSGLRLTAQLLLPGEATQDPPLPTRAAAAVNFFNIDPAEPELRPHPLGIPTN
Sequence of UniProt Q9NQU5 (whole entry, looked up): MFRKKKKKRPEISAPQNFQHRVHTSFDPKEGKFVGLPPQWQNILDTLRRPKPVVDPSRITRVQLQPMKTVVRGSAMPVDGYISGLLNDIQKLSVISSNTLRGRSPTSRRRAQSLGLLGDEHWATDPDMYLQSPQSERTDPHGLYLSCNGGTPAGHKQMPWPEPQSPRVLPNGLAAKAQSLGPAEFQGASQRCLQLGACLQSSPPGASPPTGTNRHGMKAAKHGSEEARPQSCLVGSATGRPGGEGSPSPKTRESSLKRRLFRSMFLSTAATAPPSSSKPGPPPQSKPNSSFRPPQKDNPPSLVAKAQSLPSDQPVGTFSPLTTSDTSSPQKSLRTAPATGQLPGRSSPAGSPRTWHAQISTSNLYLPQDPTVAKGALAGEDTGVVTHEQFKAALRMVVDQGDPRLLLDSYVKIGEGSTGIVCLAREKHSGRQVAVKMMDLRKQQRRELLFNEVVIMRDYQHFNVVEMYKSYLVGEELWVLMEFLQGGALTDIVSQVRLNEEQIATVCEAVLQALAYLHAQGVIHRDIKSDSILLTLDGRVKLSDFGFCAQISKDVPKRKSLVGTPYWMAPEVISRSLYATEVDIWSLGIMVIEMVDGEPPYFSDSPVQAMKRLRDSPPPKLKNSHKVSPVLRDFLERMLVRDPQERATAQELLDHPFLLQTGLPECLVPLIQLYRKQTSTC
Sequence of UniProt P41143 (whole entry, looked up): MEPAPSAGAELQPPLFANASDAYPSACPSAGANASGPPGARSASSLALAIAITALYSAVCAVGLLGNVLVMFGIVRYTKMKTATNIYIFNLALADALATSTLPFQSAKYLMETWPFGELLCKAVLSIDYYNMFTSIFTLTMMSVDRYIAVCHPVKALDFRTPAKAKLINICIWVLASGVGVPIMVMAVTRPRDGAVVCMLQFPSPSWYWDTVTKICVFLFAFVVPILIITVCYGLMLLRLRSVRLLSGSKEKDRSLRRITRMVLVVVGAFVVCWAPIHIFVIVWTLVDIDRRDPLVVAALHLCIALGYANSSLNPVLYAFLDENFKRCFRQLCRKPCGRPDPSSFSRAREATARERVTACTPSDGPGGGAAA

CN1C(=S)N(c2ccccc2)C(=O)/C1=C1/C(=O)N(C)c2ccc(Cl)cc21 — inhibition (ACHE; enzyme activity, inhibitor, Ellman; 0.5 µM): 30%
CC(C)CC(=O)OC[C@H]1O[C@@](C#N)(c2ccc3c(N)ncnn23)[C@H](O)[C@@H]1O — inhibition (OPRD1 (Homo sapiens, UniProt P41143); cell-free assay; 20 µM): 5%
COc1cc(/C=C/C(=O)O)ccc1OCc1cn(CC(=O)Nc2cccc([N+](=O)[O-])c2)nn1 — inhibition (ACHE; enzyme activity, inhibitor, Ellman; 40 µM): 30%
CN1C(=O)/C(=N\Nc2ncc(-c3cc4ccccc4oc3=O)s2)c2cc(Cl)ccc21 — inhibition (ACHE; enzyme activity, inhibitor, Ellman; 10 nM): 15%
CC(C)C[C@H]1C(=O)N2CCC[C@H]2[C@]2(O)O[C@](NC(=O)[C@@H]3C=C4c5cccc6[nH]c(Br)c(c56)C[C@H]4[N+](C)(C)C3)(C(C)C)C(=O)N12 — inhibition (HTR1A (Homo sapiens, UniProt P08908); ligand displacement, radioligand; 10 µM): 99.4%
c1cncc([C@@H]2CCCN2)c1 — inhibition (CHRM4 (Homo sapiens, UniProt P08173); ligand displacement; 50 µM): -3.41%
COc1cc2c3c(c1OC)-c1c(OC)ccc(Br)c1CC3N(C)CC2 (centres unmarked) — inhibition (HTR2C (Homo sapiens, UniProt P28335); ligand displacement, radioligand; 10 µM): 65%
Cc1nn(C)cc1-c1nc2c(N3CCN(Cc4ccc(Cl)cc4)CC3)c(Cl)cnc2[nH]1 — remaining binding (LIM domain kinase 2 (LIMK2, Homo sapiens, UniProt P53671); binding, competition with immobilised ligand; 1 µM): 75%
CCc1ccc(N2C(=O)/C(=C3/C(=O)N(C)c4ccc(Cl)cc43)NC2=S)cc1 — inhibition (ACHE; enzyme activity, inhibitor, Ellman; 0.5 µM): 52%
Cn1cc(-c2cc(F)cc(N3CCn4c(cc5c4CCCC5)C3=O)c2CO)cc(Nc2ccc(N3CCN(C4COC4)CC3)cn2)c1=O — inhibition (ABL1 (Homo sapiens, UniProt P00519, G250E); enzyme activity, inhibitor; 0.1 µM): 2%
C#Cc1n[nH]c2c(-c3cn([C@@H](C)c4ccccn4)c(=O)[nH]c3=O)cc(F)cc12 — inhibition (MERTK (Homo sapiens, UniProt Q12866); enzyme activity, inhibitor; 0.1 µM): 75.3%
COC(=O)c1cc(-c2cccc(NC(=O)Nc3ccc(F)c(F)c3)c2)on1 — MIC (Pseudomonas aeruginosa; microbial growth, broth dilution; ATCC27853): > 64 µg/mL
Nc1ccncc1 — inhibition (SCN1A (Homo sapiens, UniProt P35498); ion current, inhibitor, patch clamp; 10 µM): -57.8%
COc1cc(/C=C/C(=O)O)ccc1OCc1cn(CC(=O)Nc2ccccc2Cl)nn1 — inhibition (BCHE; enzyme activity, inhibitor, Ellman; 40 µM): 20%
CN1CCC[C@H]1c1cccnc1 — inhibition (HTR6 (Homo sapiens, UniProt P50406); ligand displacement; 50 µM): 10.6%
COc1ccccc1NC(=O)CSc1nc2cccnc2n1-c1ccccc1OC — IC50 (PFF0160c E182D; enzyme activity, inhibitor, absorbance): 2.53 µM
COc1cc(/C=C/C(=O)O)ccc1OCc1cn(CC(=O)NCCc2ccccc2)nn1 — inhibition (BCHE; enzyme activity, inhibitor, Ellman; 40 µM): 14.9%
COc1ncccc1-c1cnn2ccc(N3CCN(C(=O)OC(C)C)CC3)nc12 — remaining binding (TAOK1 (Homo sapiens, UniProt Q7L7X3); binding, competition with immobilised ligand; 1 µM): 60%
N.N.[Cl][Pt][Cl] — IC50 (Pfeiffer; cell growth or viability, ATP luminescence; 72 h): 5.42 µM
COc1cc(/C=C/C(=O)O)ccc1OCc1cn(CC(=O)Nc2ccc(O)cc2)nn1 — inhibition (BCHE; enzyme activity, inhibitor, Ellman; 40 µM): 30.4%
CN(C)Cc1c[nH]c2ccccc12 — inhibition (Palmitoyl-protein thioesterase 1 (Homo sapiens, UniProt P50897); enzyme activity, inhibitor; 125 µM): 6.1%
Nc1ncc(-c2nc(N3CCOCC3)nc(N3CCOCC3)n2)c(C(F)F)n1 — remaining binding (DDR1 (Homo sapiens, UniProt Q08345); cell-free assay, competition with immobilised ligand; 10 µM): 69%
[2H]c1c([2H])c([C@]2([2H])CCCN2C(=O)C(C)(C)Oc2ccc3cn[nH]c3c2)c([2H])c([2H])c1C([2H])([2H])[2H] — remaining binding (PAK6 (Homo sapiens, UniProt Q9NQU5); binding, competition with immobilised ligand; 1 µM): 100%
COc1cc(/C=C/C(=O)O)ccc1OCc1cn(CC(=O)Nc2ccc(Cl)cc2Cl)nn1 — inhibition (ACHE; enzyme activity, inhibitor, Ellman; 40 µM): 26.1%
CC(C)OC(=O)[C@H](C)N[P@](=O)(CO[C@H](C)Cn1cnc2c(N)ncnc21)Oc1ccccc1 — inhibition (CDK1 (Homo sapiens, UniProt P06493); enzyme activity, inhibitor, ADP detection; 10 µM): 66%
COc1ccccc1Cn1ccnc1SCC(=O)Nc1cccc(C(F)(F)F)c1 — IC50 (PFF0160c E182D; enzyme activity, inhibitor, absorbance): 4.96 µM
C[C@H]1O[C@H](O[C@H]2[C@H](O)[C@@H](O)[C@@H](O[C@H]3[C@H](O)[C@@H](O)C(O)O[C@@H]3CO)O[C@@H]2CO)[C@H](O)[C@@H](O)[C@@H]1N[C@H]1C=C(CO)[C@@H](O)[C@H](O)[C@H]1O (some centres unmarked) — inhibition (MAL12 (Saccharomyces cerevisiae S288c, UniProt P53341); enzyme activity, inhibitor, absorbance; 20 µg/mL): 21.4%
COC(=O)c1cc(-c2cccc(NC(=S)Nc3ccccc3)c2)on1 — MIC (Mycolicibacterium fortuitum; microbial growth, broth dilution; ATCC6841; 48 h): > 64 µg/mL
O=c1cc(N2CCOCC2)oc2c(-c3ccccc3)cccc12 — inhibition (PIK3CB (Homo sapiens, UniProt P42338); enzyme activity, inhibitor, ADP detection; 10 µM): 81.7%

Excerpt of the above:
COc1cc(/C=C/C(=O)O)ccc1OCc1cn(CC(=O)Nc2ccc(Cl)cc2Cl)nn1 — inhibition (ACHE; enzyme activity, inhibitor, Ellman; 40 µM): 26.1%
CN(C)Cc1c[nH]c2ccccc12 — inhibition (Palmitoyl-protein thioesterase 1 (Homo sapiens, UniProt P50897); enzyme activity, inhibitor; 125 µM): 6.1%
